Published values from different studies.
A part holds a random share of what one study measured. Several values in a cell are separate wells, animals, samples, runs or records.

Set 1 — technique: qRT-PCR; species: mouse, PK-59 xenograft; medium: tumour; setting: unit not given
Compound: Cc1ncsc1-c1ccc(C(CO)NC(=O)C2CC(O)CN2C(=O)C(C(C)C)n2cc(-c3ccc(COc4c(-c5c(C)c(F)cc6[nH]ncc56)c(C5CC5)cc5c(N6CC7CC6CN7)nc(OC6CCOCC6)nc45)cc3)nn2)cc1 (stereo not shown)
test | setting | how to read | mRNA level
refers to: DUSP6 | intravenous, 10 mg/kg, 24 h | reference: vehicle, same time point | 0.0147 and 0.0209 and 0.0181
refers to: MYC | intravenous, 30 mg/kg, 48 h | reference: vehicle, same time point | 0.0101
refers to: DUSP6 | intravenous, 30 mg/kg, 48 h | reference: vehicle, same time point | 0.0125 and 0.0171
refers to: DUSP6 | intravenous, 10 mg/kg, 72 h | reference: vehicle, same time point | 0.0351 and 0.0387
refers to: DUSP4 | 30 mg/kg, 48 h | reference: vehicle | 0.089 and 0.109
refers to: MYC | 10 mg/kg, 6 h | reference: vehicle | 0.55 and 0.386 and 0.597
refers to: MYC | 30 mg/kg, 48 h | reference: vehicle | 0.153
refers to: DUSP4 | 30 mg/kg, 24 h | reference: vehicle | 0.194 and 0.112 and 0.145
refers to: MYC | intravenous, 10 mg/kg, 6 h | reference: vehicle, same time point | 0.0394 and 0.0363 and 0.0255

Set 2 — effect on: enzyme activity; mode: inhibitor; technique: fluorescence
Target: Amine oxidase [copper-containing] 3 (AOC3, Homo sapiens, UniProt Q16853)
Chain of UniProt Q16853 (whole entry, looked up): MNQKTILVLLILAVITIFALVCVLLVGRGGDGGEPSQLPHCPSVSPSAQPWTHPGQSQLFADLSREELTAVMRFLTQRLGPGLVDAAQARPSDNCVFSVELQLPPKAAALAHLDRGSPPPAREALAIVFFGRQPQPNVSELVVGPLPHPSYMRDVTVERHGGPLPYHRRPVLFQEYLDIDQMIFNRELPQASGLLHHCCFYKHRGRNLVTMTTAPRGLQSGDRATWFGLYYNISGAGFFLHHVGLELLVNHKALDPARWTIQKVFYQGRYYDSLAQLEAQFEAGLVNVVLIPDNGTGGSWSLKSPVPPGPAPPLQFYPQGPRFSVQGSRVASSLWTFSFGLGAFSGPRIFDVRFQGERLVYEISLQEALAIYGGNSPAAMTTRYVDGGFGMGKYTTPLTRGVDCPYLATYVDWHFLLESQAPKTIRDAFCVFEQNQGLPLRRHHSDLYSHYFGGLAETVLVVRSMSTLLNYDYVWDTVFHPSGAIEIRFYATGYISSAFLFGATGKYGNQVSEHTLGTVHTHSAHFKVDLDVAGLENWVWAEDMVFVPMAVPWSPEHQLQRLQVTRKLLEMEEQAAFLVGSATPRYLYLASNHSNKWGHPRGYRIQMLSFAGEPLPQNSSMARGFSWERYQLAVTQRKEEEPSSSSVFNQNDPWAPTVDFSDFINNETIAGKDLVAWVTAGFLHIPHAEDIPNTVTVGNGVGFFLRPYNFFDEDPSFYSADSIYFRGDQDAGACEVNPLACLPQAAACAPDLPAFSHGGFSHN
SMILES | IC50
CS(=O)(=O)c1ccc(OC/C(=C/F)CN)cc1 | 4 nM
NC/C(=C\F)COc1cccc(Cn2c(=O)[nH]c(=O)c3[nH]cnc32)c1 | 5 nM
Cc1nc2c([nH]1)c(=O)[nH]c(=S)n2Cc1cccc(OC/C(=C/F)CN)c1 | 20 nM
CC(=O)NC/C(=C\F)COc1cccc(Cn2c(=S)[nH]c(=O)c3[nH]cnc32)c1 | > 30000 nM
NC/C(=C\F)COc1cc(Cn2c(=S)[nH]c(=O)c3[nH]ccc32)ccc1Cl | 12900 nM
C=C(CN)COc1cccc(Cn2c(=S)[nH]c(=O)c3[nH]cnc32)c1 | 1420 nM
NC/C(=C\F)COc1cccc(Cn2c(=S)[nH]c(=O)c3[nH]ccc32)c1F | 4 nM
NC/C(=C/F)COc1cccc(Cn2c(=S)[nH]c(=O)c3[nH]cnc32)c1 | 3 nM

Set 3 — cell line: U-87 MG; concentration: concentration not given; reference: DMSO
SMILES: CCN1/C(=C/C=C2\CCCC(/C=C/C3=[N+](CC)c4ccccc4C3(C)C)=C2NCCCCCCCCN2CCC(Nc3nc4ccccc4n3Cc3ccc(F)cc3)CC2)C(C)(C)c2ccccc21
test | log2 fold change
refers to: PROX1 mRNA | 2.5
refers to: CASP6 mRNA | -0.812
refers to: GAS1 mRNA | -3.13
refers to: LBH mRNA | 0.955
refers to: TMEM107 mRNA | -1.13
refers to: PDE1A mRNA | 4.39
refers to: ZNF280B mRNA | 1.27
refers to: ZNF530 mRNA | -0.996
refers to: LMNB2 mRNA | -1.2
refers to: CACNA2D3 mRNA | -3.27
refers to: CCDC80 mRNA | -1.03
refers to: DYM mRNA | 0.892
refers to: METTL7B mRNA | -3.71
refers to: SYT1 mRNA | 1.34
refers to: ARHGEF40 mRNA | -1.25
refers to: APBA3 mRNA | 0.847

Set 4 — organism: Arabidopsis thaliana; strain: Col-0; setting: seed germination
SMILES: COc1ccc2c(c1)OC(O)(C(=O)O)C(=O)N2Cc1ccccc1 (stereo not shown)
setting | root length [cm]
12.5 µg/mL | 1.17
50 µg/mL | 0.701
3.125 µg/mL | 1.22
25 µg/mL | 1.04

Excerpt of the above (set 3):
test | log2 fold change
refers to: LMNB2 mRNA | -1.2
refers to: CACNA2D3 mRNA | -3.27
refers to: CCDC80 mRNA | -1.03
refers to: DYM mRNA | 0.892
refers to: METTL7B mRNA | -3.71
refers to: SYT1 mRNA | 1.34
